Measurements of several laboratories.
Every numbered part comes from another study and shows a few of its results, in no order.

Set 1
Target: Sal-like protein 4, full length isoform B (SALL4, Homo sapiens, UniProt Q9UJQ4-2, residues 1-616)
Technique: universal PBM
Form: double-stranded DNA, one strand shown
Sample: in vitro
Tested at: not given
Notes: 8-mer, flanks averaged, mean of replicates
Reading: higher = stronger binding
Quantity: E-score
CGGACGAA: -0.0958
AAGTGATA: 0.145
AAGACGCT: -0.0708
AGCCATAA: 0.255
CTCTACAC: -0.13
AGGTGATG: -0.176
CGGCCCAG: -0.355
ATGGTGGA: 0.0265
CAGGATAC: -0.047
AAAATAGT: 0.253
TAAAACTA: 0.322
AACTACTC: 0.116
CGGTGGCC: -0.376
AATTTACT: 0.355
AGGTTGTG: -0.0158
CATTTCGA: 0.0969
CACGCCGC: -0.19
CAGGGTCA: -0.154
ATAAGACG: 0.244
GGTCGACA: -0.0521
AGGTGGCA: -0.106
ATAAGGCG: 0.0984
TCCCGCAA: -0.0646
ACCAGCAT: -0.0938
GGTAATAC: 0.144

Set 2
Target: POU, POU domain (Salpingoeca helianthica)
Technique: Spec-seq
Form: double-stranded DNA, one strand shown
Sample: in vitro
Tested at: not given
Notes: whole probe, mean of replicates
Baseline: not given
Reading: lower = stronger binding
Quantity: relative binding energy
Shared flanks, not repeated: GAGTCGTCTCGTCAGCAC … CCGTAGAGCACTCAGGTC
Target sequence (chain): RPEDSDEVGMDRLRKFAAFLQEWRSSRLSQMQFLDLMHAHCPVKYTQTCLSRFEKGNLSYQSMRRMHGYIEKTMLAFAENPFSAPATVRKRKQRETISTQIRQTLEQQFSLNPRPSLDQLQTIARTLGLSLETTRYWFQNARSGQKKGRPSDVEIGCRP
ATGCGATG: 1.37 ln ratio
ATGCGGCT: 1.49 ln ratio
ATGTGCAT: 1.16 ln ratio
ATGCGATC: 1.03 ln ratio
TTTATAAT: -0.442 ln ratio
ATTTCGAT: 1.52 ln ratio
ATACTAAT: 0.816 ln ratio
ATGCGAAC: 1.26 ln ratio
TTCTTAAT: 0.439 ln ratio
GAACTAAT: 0.532 ln ratio
ATGTGTAT: 1.09 ln ratio
ATCAAAAT: 1.08 ln ratio
CGGGTAAT: 0.837 ln ratio
ATGGCAAT: 1.3 ln ratio
TGAGTAAT: 0.148 ln ratio
TGGATAAT: 0.447 ln ratio
ATGCTCTA: 1.04 ln ratio
ATGCGTGA: 1.26 ln ratio
ATGCAGGG: 1.22 ln ratio
TTAATAAT: -0.858 ln ratio
ATGCTCCG: 1.42 ln ratio
ATCGCAAT: 1.52 ln ratio
TAGGTAAT: 0.709 ln ratio

Set 3
Target: Histone acetyltransferase KAT6A, both winged helices, GST fusion (KAT6A, Homo sapiens, UniProt Q92794, residues 1-181)
Technique: protein binding microarray
Form: double-stranded DNA, one strand shown
Sample: in vitro
Tested at: not given
Notes: 8-mer, flanks averaged, mean of 2 arrays, mostly near background
Baseline: not given
Reading: higher = stronger binding
Quantity: E-score
Target sequence (chain): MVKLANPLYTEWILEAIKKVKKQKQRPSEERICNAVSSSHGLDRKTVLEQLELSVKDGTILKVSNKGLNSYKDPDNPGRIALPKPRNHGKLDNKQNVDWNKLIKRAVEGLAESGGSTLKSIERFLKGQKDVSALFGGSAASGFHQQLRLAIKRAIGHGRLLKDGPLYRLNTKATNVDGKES
ATTGCCGA: 0.175
CATAACTA: 0.0302
GATTTGTA: -0.0686
AATATCAA: -0.0964
CGAGCTAG: 0.0209
GGCATACA: 0.0202
CCGACCCC: 0.151
TCTTCGAA: 0.0821
AACGGATC: 0.0263
CCCTCACG: -0.0147
AAATGCAT: -0.0236
ATTGTTTG: 0.00464
AGAGGGAT: -0.247
AAATAATG: -0.0769
ACACCGAT: 0.0511
ACTGTTCG: -0.00162
GGTAGTCA: -0.0764
CCGTGCGC: 0.301
CTAATGTC: -0.0411
ATATTCAA: 0.108
AGCCACCC: -0.0457
ATACAGCC: -0.0554
ACTCACGG: 0.176
ATTCTAAG: -0.124
GACGGTGC: 0.243

Set 4
Target: Interferon regulatory factor 7, full length, phosphomimetic (IRF7, Homo sapiens, UniProt Q92985, residues 1-503, S471D/S472D/S475D/S476D/S477D/S483D/S484D/S487D)
Sequence of UniProt Q92985 (whole entry, unmodified, looked up): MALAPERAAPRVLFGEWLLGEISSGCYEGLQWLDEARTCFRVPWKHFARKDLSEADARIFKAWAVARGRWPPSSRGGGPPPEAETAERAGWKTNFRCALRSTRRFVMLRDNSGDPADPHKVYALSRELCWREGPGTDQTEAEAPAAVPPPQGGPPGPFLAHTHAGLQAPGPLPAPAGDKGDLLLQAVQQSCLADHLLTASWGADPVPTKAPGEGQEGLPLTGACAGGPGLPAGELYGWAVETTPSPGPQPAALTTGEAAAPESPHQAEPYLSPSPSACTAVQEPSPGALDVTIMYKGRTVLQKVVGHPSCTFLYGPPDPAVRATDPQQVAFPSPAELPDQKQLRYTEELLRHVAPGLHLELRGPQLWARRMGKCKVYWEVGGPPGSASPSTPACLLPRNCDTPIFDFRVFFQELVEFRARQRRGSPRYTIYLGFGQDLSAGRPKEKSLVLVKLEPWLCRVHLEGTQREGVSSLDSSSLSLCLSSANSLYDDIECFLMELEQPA
Technique: protein-binding microarray
Form: double-stranded DNA, one strand shown
Sample: in vitro
Tested at: 2200 nM top
Notes: 60-bp whole probe
Together with: salmon DNA 0.4 mg/ml
Baseline: random background probes
Reading: higher = stronger binding
Quantity: fitted relative affinity
Shared flanks, not repeated: GCCTAGCAC … GTCTTGATTCGCTTGACGCTGCTG
TTAGGATTGGGTCTCGGTTAGTGCTAG: 0.148 z-score
GACGGACTGGGTACTGGGGACGTGCTA: -1.09 z-score
GACGATTTCAGACTGGAGCCGTGCTAG: 0.206 z-score
TCAATTCCAGGGTTTTATACTGTGCTA: 0.408 z-score
TCATTTTTTTTTTTCTGACTGTGCTAG: 2.33 z-score
TCATTCCTCTTTCTCTGACTGTGCTAG: 2.92 z-score
TCATTCCTGAAATCTCTTACTGTGCTA: 1.22 z-score
TTAGAACTCGGGACTGGATTAGTGCTA: -0.493 z-score
TTATGTCTCCTTTTCCTTTAGTGCTAG: 2.99 z-score
TTAGAACTGATTATCGATTAGTGCTAG: -0.189 z-score
TTAGATTTCGGGACTGGATTGGTGCTA: 1.08 z-score
TTAGGTCTCCTACTGCCTTAGTGCTAG: 0.735 z-score
TCACCTTTCACTTTAACACTGTGCTAG: 5.11 z-score
GACGGTCTACTTCTCCTGACGTGCTAG: 1.03 z-score
TTAGATTTCAGACTGGATGAGTGCTAG: -0.181 z-score
TTAGGACTCGACACTGGGTTAGTGCTA: -0.243 z-score
GACGGCCTCCTTTTCCTGACGTGCTAG: 1.13 z-score
GGACAGTAATGGAGGTATAAGTGCTAG: -0.682 z-score
TAAGGTCTCGGTTTCGGTTAGTGCTAG: 7.6 z-score
GACGAACTGAGACTGGAGCCGTGCTAG: -0.344 z-score

Set 5
Target: RNA binding protein fox-1 homolog 2, RRM domain, GST-SBP tag (RBFOX2, Homo sapiens, UniProt O43251-10, residues 100-194)
Technique: RNA Bind-n-Seq
Form: RNA
Sample: in vitro
Tested at: 365 nM
Notes: natural RNA segment, single round, ends assumed
Baseline: no-protein control
Reading: higher = stronger binding
Quantity: RBNS enrichment (R)
Target sequence (chain): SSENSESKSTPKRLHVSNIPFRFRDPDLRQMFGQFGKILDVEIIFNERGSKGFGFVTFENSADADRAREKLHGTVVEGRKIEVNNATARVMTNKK
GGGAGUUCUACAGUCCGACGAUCCUGGAGCAGUGUGCUGCGUAGUUCGGCCUGAGUUUGUGCAGCUUGUUAAGACAACUCUUGUGUACGCUAUGUUGAAGCUCAACAAAAAAGUCAUGGGACCACUUCUAGAAUGGAAUUCUCGGGUGCCAA: 0.822
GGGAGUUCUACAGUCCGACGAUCCUGUGACCGCUACACAAAUUGUUUAUCAUCUUUGGGUCUCUAUUGCCUUCUUUAUAAAAUAAGUGUAAGUUGUUCAGCCUGCCUCACAGGGCUGUUGUGAGGAAAUAAAAUGGAAUUCUCGGGUGCCAA: 0.738
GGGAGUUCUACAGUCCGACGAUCCUCCCCCACAAGCCUUUAAUUGAGAGCCGCUCUUUAUAAGUGUUCGCUUGUGCAAAAGGGAAUAGUGCCGUGGAAGUGUGUGUCCAUGGCAGUUUGGACAGGGGUGACUGUGGAAUUCUCGGGUGCCAA: 0.491
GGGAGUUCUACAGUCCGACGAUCCCUGCCAAGGUUCUCAAAGCACUUAUCCUCAGGAUAGGGAAAUAGCAGGGACGCCUUGUCCCCAAGACUUCUCCCCAACUUGGCUCCAUUCCUGCAUUCUGCCAUAGGAAUGGAAUUCUCGGGUGCCAA: 0.951
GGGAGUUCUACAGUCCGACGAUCACAGAGGAGGAGAUGGAGCUCUAGACACCCGUUCUGCUCUAACUUGACAAGUCGGAGAAGGCUCCUGCGUUCAGAAAUGAGCCUGCCUGCAGAGUAUAGGGGCCUGAAAGUGGAAUUCUCGGGUGCCAA: 0.628
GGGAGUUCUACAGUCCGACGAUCCAGUUCUCAUUACUGUUAUUUAUUAGCUGUAGCAUUCUCUGUCUCCUCUCUCUCCUCCUUUGACCUUCUCCUCGACCAGCCAUCAUGACAUUUACCAUGAAUUUACUUCCUGGAAUUCUCGGGUGCCAA: 0.584
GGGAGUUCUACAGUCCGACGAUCUAGAGAGUUGGUCUCUUAUAAACACACGCCGAACCUCACCAUAUGGAGCCAGACAUUGGGAUGCACGCAUGUGAUUGUGUGUGCACGCAUGUGUGUGUGUGCACGCACUGUGGAAUUCUCGGGUGCCAA: 1.73
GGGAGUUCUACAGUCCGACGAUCACCUUAGGGACACCCUGCAGAGUAUGUUCAGUGUCUCGUCUUGGUGUUUCACAGUUCCAUGGUGAUACCUUCCCACACAUGAUUUCCUUUGUACAUUGCUUUUCAUUUUCUGGAAUUCUCGGGUGCCAA: 0.665
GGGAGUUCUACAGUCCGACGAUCAGAGACUUCUAGGAAUCUUUUUCUUCUCAUAGCGAAGUCAAAGCUCUCUCUGAAUGUACUGUGUGAUGAUGCAUCAUGCAUGAACCUUCGGUCAGGGAUAUCAUUGGUGAUGGAAUUCUCGGGUGCCAA: 0.317
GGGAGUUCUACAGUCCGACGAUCUGAGGUACUUGCUAGGGCGGAUCCUCACCGGAAGUUCGGAGCCAGAGGCUGCUCCUGCCCCGCGCCGCCUCCGCCGAUCUGUGGACCAGGAUUUGGGUCCCGAGGUGCCCUGGAAUUCUCGGGUGCCAA: 0.225
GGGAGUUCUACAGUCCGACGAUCUGAAGGAGAAAAAGCUUAAAUUCCAUCUUGAGCUCUUGGAUUGUGAUAAUACAAUGAUUUCAUUAACUUUUCAUUUCUGUAUACCUGUUCAUUUGGAAUUUAAUGCUUGAUGGAAUUCUCGGGUGCCAA: 0.419
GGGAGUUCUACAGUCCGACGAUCUACAGAUCUUUCUAUAAAAAAUAAACAUCUUUUGAUUGCUUGGAUUUAGGAAUUCAAUUUUUGUUUCAGUGACCAAUGUCAAGUUGCAGGCUUUGUGUGUUGCAUAUUUAUGGAAUUCUCGGGUGCCAA: 1.16

Set 6
Target: Hepatocyte nuclear factor 3-beta, forkhead domain (FOXA2, Homo sapiens, UniProt Q9Y261, residues 142-269)
Technique: protein-binding microarray
Form: double-stranded DNA, one strand shown
Sample: in vitro
Tested at: not given
Notes: k-mer, scored over probes, only values ≥0.25
Reading: higher = stronger binding
Quantity: E-score
Construct (chain): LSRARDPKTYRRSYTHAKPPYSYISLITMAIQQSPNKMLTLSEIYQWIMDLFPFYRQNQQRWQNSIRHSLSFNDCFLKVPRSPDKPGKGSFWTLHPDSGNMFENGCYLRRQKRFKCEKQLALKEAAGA
ATATTTAG: 0.294
ATGTATTA: 0.365
CATACACA: 0.334
TACATAGA: 0.272
ACGTTATA: 0.31
TACATTCA: 0.268
ATACACTG: 0.286
AAATATAC: 0.318
TATCAACA: 0.379
CCAACTAA: 0.268
CAATATAG: 0.308
CAAACAGA: 0.275
ACGATTAT: 0.274
AAATAAGT: 0.265
ACAATGCT: 0.27
AGTAAAGA: 0.273
ACGTTAAA: 0.29
ATGAGTAA: 0.257
AACTGTAT: 0.326
ATAACAAG: 0.312
AGGTAAAT: 0.271
CGATACTA: 0.287
AAATAATG: 0.265
ATGATTCC: 0.258
TCAAATAA: 0.324

A few entries again (set 4):
TTAGATTTCAGACTGGATGAGTGCTAG: -0.181 z-score
GACGGTCTACTTCTCCTGACGTGCTAG: 1.03 z-score
TTAGAACTGATTATCGATTAGTGCTAG: -0.189 z-score
TTAGGACTCGACACTGGGTTAGTGCTA: -0.243 z-score
TCATTCCTGAAATCTCTTACTGTGCTA: 1.22 z-score
TTAGGATTGGGTCTCGGTTAGTGCTAG: 0.148 z-score
TTAGGTCTCCTACTGCCTTAGTGCTAG: 0.735 z-score
GACGATTTCAGACTGGAGCCGTGCTAG: 0.206 z-score
